# Measured values of several laboratories.
# Parts stem from different laboratories: compare values within a part only.

# Series 1 — method: universal PBM; molecule type: double-stranded DNA, one strand shown; sample: in vitro; concentration: 600 nM; reading: higher = stronger binding
# Target: Sal-like protein 4, full length isoform A (SALL4, Homo sapiens, UniProt Q9UJQ4, residues 1-1053)
# UniProt Q9UJQ4, sequence (whole entry, looked up): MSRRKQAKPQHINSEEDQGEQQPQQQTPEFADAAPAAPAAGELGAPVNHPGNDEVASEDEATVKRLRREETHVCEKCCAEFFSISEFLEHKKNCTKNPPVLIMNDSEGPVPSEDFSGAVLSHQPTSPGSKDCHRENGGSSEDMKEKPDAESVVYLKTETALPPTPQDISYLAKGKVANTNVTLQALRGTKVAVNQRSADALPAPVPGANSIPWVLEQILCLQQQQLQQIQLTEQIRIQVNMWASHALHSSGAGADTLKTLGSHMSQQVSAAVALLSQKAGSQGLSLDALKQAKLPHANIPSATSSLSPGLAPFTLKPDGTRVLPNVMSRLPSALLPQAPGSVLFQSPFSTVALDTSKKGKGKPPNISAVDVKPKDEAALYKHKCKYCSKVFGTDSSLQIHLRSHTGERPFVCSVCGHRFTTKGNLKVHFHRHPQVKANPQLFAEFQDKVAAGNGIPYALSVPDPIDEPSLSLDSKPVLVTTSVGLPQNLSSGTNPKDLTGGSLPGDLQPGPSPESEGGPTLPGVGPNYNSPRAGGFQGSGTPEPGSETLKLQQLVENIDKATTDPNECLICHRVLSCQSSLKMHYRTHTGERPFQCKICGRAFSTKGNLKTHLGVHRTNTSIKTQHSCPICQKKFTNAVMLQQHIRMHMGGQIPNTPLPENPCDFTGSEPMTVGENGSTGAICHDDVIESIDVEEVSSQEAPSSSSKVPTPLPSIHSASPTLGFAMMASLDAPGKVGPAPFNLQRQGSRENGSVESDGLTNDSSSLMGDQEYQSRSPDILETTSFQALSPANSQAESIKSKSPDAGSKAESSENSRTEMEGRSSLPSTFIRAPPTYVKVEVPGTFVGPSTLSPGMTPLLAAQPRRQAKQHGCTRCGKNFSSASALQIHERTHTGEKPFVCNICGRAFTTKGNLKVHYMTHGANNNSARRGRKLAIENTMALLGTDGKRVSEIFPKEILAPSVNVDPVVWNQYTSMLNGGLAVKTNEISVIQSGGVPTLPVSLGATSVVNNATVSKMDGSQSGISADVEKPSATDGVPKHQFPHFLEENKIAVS
# Setting: 8-mer, flanks averaged, mean of replicates
Sequence,E-score
CACTCTGC,-0.112
AGTCAGTG,0.0127
CCCCGCGA,-0.265
TGAGCAAA,-0.00912

# Series 2 — method: protein binding microarray; molecule type: double-stranded DNA, one strand shown; sample: in vitro; concentration: not given; baseline: not given; reading: higher = stronger binding
# Target: Histone acetyltransferase KAT6A, winged helix 2, GST fusion (KAT6A, Homo sapiens, UniProt Q92794, residues 85-181)
# Setting: 8-mer, flanks averaged, mean of 2 arrays, mostly near background
# Construct (chain): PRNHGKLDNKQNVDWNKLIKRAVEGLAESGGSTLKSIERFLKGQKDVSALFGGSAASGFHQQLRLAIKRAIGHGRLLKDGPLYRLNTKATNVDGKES
Sequence,E-score
CGCGGCGA,0.238
TTCTGCAA,0.244
AATGAACT,-0.0741
CAGATTCG,0.0279
AAGGCGGG,0.0837
CTACCAAC,0.0689

# Series 3 — method: protein-binding microarray; molecule type: double-stranded DNA, one strand shown; sample: in vitro; concentration: 2540 nM top; setting: 60-bp whole probe; together with: salmon DNA 0.4 mg/ml; baseline: random background probes; reading: higher = stronger binding; shared flanks, not repeated: GCCTAGCAC … GTCTTGATTCGCTTGACGCTGCTG
# Target: Interferon regulatory factor 3, full length, phosphomimetic (IRF3, Homo sapiens, UniProt Q14653, residues 1-427, S386D/S396D/S398D/S402D/T404D/S405D)
# Target sequence (chain): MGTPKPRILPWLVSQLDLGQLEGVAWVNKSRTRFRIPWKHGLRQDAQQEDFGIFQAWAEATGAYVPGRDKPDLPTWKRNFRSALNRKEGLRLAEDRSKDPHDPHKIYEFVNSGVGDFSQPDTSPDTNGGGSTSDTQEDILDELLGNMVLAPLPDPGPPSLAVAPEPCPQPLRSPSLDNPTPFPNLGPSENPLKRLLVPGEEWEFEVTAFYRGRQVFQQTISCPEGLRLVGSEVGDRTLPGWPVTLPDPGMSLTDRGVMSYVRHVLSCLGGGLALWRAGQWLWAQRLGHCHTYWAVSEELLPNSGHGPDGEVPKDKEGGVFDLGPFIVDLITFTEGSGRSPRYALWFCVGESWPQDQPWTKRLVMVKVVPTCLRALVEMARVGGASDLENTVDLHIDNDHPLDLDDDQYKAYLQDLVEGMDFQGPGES
Sequence,fitted relative affinity [z-score]
TTAGGACTGGGCTTCGGTTAGTGCTAG,-0.977
GACGGTCTCAGTATCGAGACGTGCTAG,1.32
TTAGAACTGAGACTGGATTAGTGCTAG,-0.286
GACGGTCTCCTTCTCCTGAAGTGCTAG,4.37
TTAGGTTTCAGTATCGATTAGTGCTAG,5.27
TCATTTCCATTTTCTAAAACTGTGCTA,5.37

# Other studies, line by line
Molecule,target,assay,system,conditions,how to read,endpoint,value
"PhoQ, residues 284 288 289 292 302 303 SLANKL","PhoP, residues 12 14 15 18 19 LFHKL (Escherichia coli, UniProt P23836)","Sort-seq, measured: YFP reporter",E. coli,"PhoQ-PhoP variant library, together with: 10 µM Mg2+","baseline: high Mg2+ state, higher = stronger signaling",fold induction,1.9
